Assay results pooled from the literature.
Parts stem from different laboratories: compare values within a part only.

Study 1 — technique: protein-binding microarray; molecule type: double-stranded DNA, one strand shown; sample: in vitro; tested at: 940 nM top; setting: 60-bp whole probe; with: salmon DNA 0.4 mg/ml; baseline: random background probes; reading: higher = stronger binding; constant ends, left off below: GCCTAGCAC … GTCTTGATTCGCTTGACGCTGCTG
Target: Interferon regulatory factor 5, full length, phosphomimetic (IRF5, Homo sapiens, UniProt Q13568-2, residues 1-514, S451D/S453D/S456D/S462D)
Sequence | fitted relative affinity
GACGAACTGGGGCTTCGAGACGTGCTA | -0.0116 z-score
GACGGTATCCGTTTCGGGACGTGCTAG | 1.41 z-score
TCATTTCCATTTTCTAAAACTGTGCTA | 1.81 z-score
TTAGGACTGGGACTGGGGTAGTGCTAG | -0.266 z-score
TTATATCTCAGTTTCGATTAGTGCTAG | 8.62 z-score
TTAGGACTGGACTTGCGGTTAGTGCTA | -0.315 z-score
TTAGATTTCGGGATTGGATTAGTGCTA | 0.658 z-score
GTCGATTTCAGTCTCGAGACGTGCTAG | 3.28 z-score
GACGGTATCGGGTTTTGGGACGTGCTA | 3.84 z-score
GACGGACTGGAATATCGGGACGTGCTA | 0.0668 z-score
TTAGGTCTCCTTTTCCCTTAGTGCTAG | 0.553 z-score
TAAGGTTTCGGTTCCGGTTAGTGCTAG | 12.6 z-score
GACGGTTTCCTTATACTGACGTGCTAG | 1.59 z-score
TCAAGTCTCTGTTCTTTACTGTGCTAG | 1.58 z-score
GACGATTTCGGGCTTCGAGACGTGCTA | 0.234 z-score
TTTGGTATCCTTATCCTTTAGTGCTAG | 1.12 z-score
TCATCTTTCCATACTGCACTGTGCTAG | 1.22 z-score
GACGGACTGGGCACTGGGGACGTGCTA | -0.753 z-score
TCACAGATGTTTTTCATACTGTGCTAG | 0.105 z-score
AGACCTTCACCTCTCTGTCCGTGCTAG | 0.858 z-score
GACGATATCGGGTTTCGAAACGTGCTA | 3.72 z-score
GACGGTTCCAGTTTCGAGACGTGCTAG | 4.28 z-score

Study 2 — technique: competition protein-binding microarray; molecule type: double-stranded DNA, one strand shown; sample: in vitro; tested at: 2 µM; with: Cbf1 competitor, 0.05 µM; reading: higher = stronger binding; constant ends, left off below: … GTCTTGATTCGCTTGACGCTGCTG
Target: Phosphate system positive regulatory protein PHO4, full length, GST-tagged (PHO4, Saccharomyces cerevisiae, UniProt P07270, residues 1-312)
Setting: whole 60-bp probe, lowest competitor level
Residues (chain): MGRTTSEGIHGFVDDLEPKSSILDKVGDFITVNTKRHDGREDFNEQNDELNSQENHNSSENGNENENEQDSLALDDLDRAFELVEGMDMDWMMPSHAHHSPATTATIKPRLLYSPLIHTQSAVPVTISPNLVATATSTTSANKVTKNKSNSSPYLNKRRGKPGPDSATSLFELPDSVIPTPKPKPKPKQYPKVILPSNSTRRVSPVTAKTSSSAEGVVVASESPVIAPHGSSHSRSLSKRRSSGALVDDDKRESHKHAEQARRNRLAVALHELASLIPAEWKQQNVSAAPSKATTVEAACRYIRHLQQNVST
Sequence | fluorescence intensity
GCACCACACAGGTTTTACGTGCGGACAAGACCGTTG | 5270 a.u.
TACGACCAGATGAATCACATGTGTGGATGTTAACAA | 9910 a.u.
ATTGATGATGGTTATCATGCTTGATAATAGACTTAA | 4590 a.u.
ATATCCAACATTTGGCCCGTGATGGCTTAAGCGACT | 5870 a.u.
AAATTACTAAGTTGCCTAGTGGGTGACGCCGTATGA | 4320 a.u.
CTTTCCCGATCTTGGCGGGTGGGTGTAGCACATTTG | 5180 a.u.
GCTTGTTCATACAAGCTCGTGTAGCTAAATACGTAC | 8640 a.u.
AGTTGTTAGATAAAGCACGTGTAGCATTGTACAATT | 18600 a.u.
CGCTCTGTTCCTTCTCCCGTGCTGTCGCAAGCGAAC | 5640 a.u.
CGCTTGACGAACCATCACGTTTGTCAATAACACTTC | 9650 a.u.
GGGATGGTGATGGTATACGTGGTTACGTCTTTTACA | 6240 a.u.
CTAACGAAGGTTTGTCACGGCACTTACAAGCCAAGT | 3870 a.u.
CGTCCTAGTGATTGTCACCTTACTTCCATGAGGAAG | 4490 a.u.
TAATCCTCAACACTACCCGTGGTGAATGTCCTAAAG | 7470 a.u.
ATCAGATCAAACTGGCACGTGCCAGATTTGGTTTAG | 17800 a.u.
TCGAGGCAAGCTCAAAACGTGACGGCTACACCCCCT | 11400 a.u.
GTCTTGTCTCATTGAGGGGTGGGTGTCCCCACTTCA | 4920 a.u.
CTTCTGTAAATTTGTTGGGTGGGTGGACGCGCCCCG | 4430 a.u.

Study 3 — technique: RNA Bind-n-Seq; molecule type: RNA; sample: in vitro; tested at: 365 nM; baseline: no-protein control; reading: higher = stronger binding
Target: RNA binding protein fox-1 homolog 2, RRM domain, GST-SBP tag (RBFOX2, Homo sapiens, UniProt O43251-10, residues 100-194)
Setting: natural RNA segment, single round, ends assumed
Constant ends, left off below: GGGAGUUCUACAGUCCGACGAUC … UGGAAUUCUCGGGUGCCAA
Residues (chain): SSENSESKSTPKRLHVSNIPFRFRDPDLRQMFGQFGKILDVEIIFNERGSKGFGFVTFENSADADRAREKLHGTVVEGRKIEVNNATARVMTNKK
Sequence | RBNS enrichment (R)
GAGAAUUGACAAGGAUGUAGAACAAGUGUUCCUUUCCAUCACACCUGCCAAGGGCAAAGCUACCUGGUAUCCAGGAAGAGAGCUCUGGUACCCUGUGCUUGUGUUUGUGU | 0.897
AACCCACUCAGCAAAGUUGCCAACCUCGACGGGCUAGCAGUGUCUAAGCAGCGAUGGGUUCAGUGUUGUGUGUGGUGAAUACUGUAUUUUGUUUCAGUUCUGUCUCCCAG | 0.282
CCUGACUGGAAUGUAUUCAGUUUCUCAUGUUACUUCUAUUUAAAAAAUAAAAUCUAUUCUCUUAGAAGUACAGAUCAUUUUGAAACUUAAUGUGAUAUUUGUUGACAUUU | 1.11
UUUUCCUUUAAGUUUGUUUUUAAAUGUAUUAGUCCAGGGGAUUUUGCCUUAUGCUGAGGUCAAACUAAGGAUAAGCAAGCUUUUGUCCUUCAUUUUAACUGUUAUGUCAU | 3.13
GAGACACAUUGCCUUCUGCAGCUGGGAGACAGAGGAAGGAUUCCCUUUCUUCACCAAGUGCAAUAGAUUUCCUCAUCUGAUAGGCUGUUGCUUUACCGUCACACGCGAUG | 0.351
CAUGGAGAUCAAAGAAAUAGCAAGCAGGACCCGCAGGGAACUACUGGGCCUCUCGGAUGAAGGUGGACCCAAGUCAGAAGGAGCGCCAAAGGCCAAAUCAAAACCCCGGA | 0.341
UAGAGAAAUAGCCUGUGGGACUUGUUAAAGAAGAUAGAUAGUAAGAAAAGCAGCCAUUGCGUGCCCUCUGUGAAGAGUUCUAACUUGGAGAACAAAUCUCUCAGACAAAU | 0.819
AGACAGAGAUAUGGACUAGGUUACAGGAAACGUGCACCGUUGGCUCCACAGACAAGAAGUGCAUUGCCAGAAGAGCAUCACUGAACGGAGCGGAGGGAGGACCAGUUGCA | 2.79
AAAUAUAUGUAUAUGUUGUGUAAUACACAUAAUCUGGAAAUGAAUAAAAUGCUAUAUUCUUGGUUUGAAAUUUAUCUUUACUUUUUUAUAUGAUUAUGUUUCUUGUUCCU | 1
GAAAGUGCCUGUGUCUCACACCAAGAAUCUUGCCUAACCUGUCAGAGUGCCUAAUCUUGUGGUUAUAAUGUACAAUGAAAUAAUCUUGUGGGGGUUUUUUGUUUUCUCAA | 0.919
AUGCAACUGAGCAGGGUUAGGGAAACAGGUGUCAAGAAUGAAGAGAAUGGUUUUAUCUCCAAGGUGAUACCAAAAACGAGUCAUGGACGACAGGCCUGGCCUCACACGCC | 0.48
GAGGGCAGAAUUCAACAAGCACAACUCACUGGUCUUUCAGUCAACGUGCUAGAAACCGAUGACUUAUUAAUCUCUAAUUUUUUGGCGCCUCUUUCAUUGAAUGAGAAUUG | 0.782

Study 4 — technique: aptamer microarray, sandwich; molecule type: DNA with 2'F-ANA; sample: in vitro; tested at: 200 nM; with: Cy3 exosite-II aptamer, 400 nM; reading: higher = stronger binding; sequence: GGTTGGTGTGGTTGG
Target: Prothrombin, mature alpha-thrombin (F2, Homo sapiens, UniProt P00734)
Setting: whole 15-mer aptamer, many near background
Modification | mean fluorescence intensity
2'F-ANA at 3 4 7 10 11 13 | 230 a.u.
2'F-ANA at 1 8 9 15 | 253 a.u.
2'F-ANA at 5 8 12 14 | 62.3 a.u.
2'F-ANA at 1 2 4 6 10 13 14 15 | 51.7 a.u.
2'F-ANA at 1 2 4 5 6 7 10 11 13 | 48.7 a.u.
2'F-ANA at 1 2 3 4 6 7 9 11 12 13 15 | 148 a.u.
2'F-ANA at 1 6 9 11 12 14 15 | 104 a.u.
2'F-ANA at 1 4 5 7 10 11 12 15 | 46.5 a.u.
2'F-ANA at 1 3 4 5 6 9 12 15 | 110 a.u.
2'F-ANA at 1 5 6 7 8 10 11 12 14 | 44.9 a.u.
2'F-ANA at 3 5 6 7 11 12 14 | 63.2 a.u.
2'F-ANA at 1 5 11 12 13 14 15 | 46 a.u.
2'F-ANA at 1 2 5 6 7 8 10 12 14 | 55 a.u.
2'F-ANA at 1 3 4 6 8 11 12 13 14 | 81.5 a.u.
2'F-ANA at 1 2 7 10 11 12 14 | 48.2 a.u.
2'F-ANA at 1 2 3 8 11 12 13 15 | 377 a.u.
2'F-ANA at 1 3 4 5 8 9 10 11 12 13 14 15 | 46 a.u.
2'F-ANA at 2 5 6 9 10 11 12 | 49.2 a.u.
2'F-ANA at 7 12 14 15 | 284 a.u.
2'F-ANA at 1 3 4 6 10 12 13 14 15 | 53.9 a.u.
2'F-ANA at 1 2 4 8 11 13 | 96.3 a.u.

Excerpt of the above (study 3):
Sequence | RBNS enrichment (R)
CCUGACUGGAAUGUAUUCAGUUUCUCAUGUUACUUCUAUUUAAAAAAUAAAAUCUAUUCUCUUAGAAGUACAGAUCAUUUUGAAACUUAAUGUGAUAUUUGUUGACAUUU | 1.11
UUUUCCUUUAAGUUUGUUUUUAAAUGUAUUAGUCCAGGGGAUUUUGCCUUAUGCUGAGGUCAAACUAAGGAUAAGCAAGCUUUUGUCCUUCAUUUUAACUGUUAUGUCAU | 3.13
GAGACACAUUGCCUUCUGCAGCUGGGAGACAGAGGAAGGAUUCCCUUUCUUCACCAAGUGCAAUAGAUUUCCUCAUCUGAUAGGCUGUUGCUUUACCGUCACACGCGAUG | 0.351
CAUGGAGAUCAAAGAAAUAGCAAGCAGGACCCGCAGGGAACUACUGGGCCUCUCGGAUGAAGGUGGACCCAAGUCAGAAGGAGCGCCAAAGGCCAAAUCAAAACCCCGGA | 0.341
UAGAGAAAUAGCCUGUGGGACUUGUUAAAGAAGAUAGAUAGUAAGAAAAGCAGCCAUUGCGUGCCCUCUGUGAAGAGUUCUAACUUGGAGAACAAAUCUCUCAGACAAAU | 0.819
AGACAGAGAUAUGGACUAGGUUACAGGAAACGUGCACCGUUGGCUCCACAGACAAGAAGUGCAUUGCCAGAAGAGCAUCACUGAACGGAGCGGAGGGAGGACCAGUUGCA | 2.79
AAAUAUAUGUAUAUGUUGUGUAAUACACAUAAUCUGGAAAUGAAUAAAAUGCUAUAUUCUUGGUUUGAAAUUUAUCUUUACUUUUUUAUAUGAUUAUGUUUCUUGUUCCU | 1
GAAAGUGCCUGUGUCUCACACCAAGAAUCUUGCCUAACCUGUCAGAGUGCCUAAUCUUGUGGUUAUAAUGUACAAUGAAAUAAUCUUGUGGGGGUUUUUUGUUUUCUCAA | 0.919
AUGCAACUGAGCAGGGUUAGGGAAACAGGUGUCAAGAAUGAAGAGAAUGGUUUUAUCUCCAAGGUGAUACCAAAAACGAGUCAUGGACGACAGGCCUGGCCUCACACGCC | 0.48
